{"data": "Measurements from different studies", "note": "Protocols differ between the studies behind these lines. ± gives the spread as reported."}
{"SMILES": "O=C(N/N=C/c1ccc2c(ccc[n+]2Cc2ccccc2)c1)c1cccc(C(=O)N/N=C/c2ccc3c(ccc[n+]3Cc3ccccc3)c2)n1", "target or system": "telomeric G4 DNA hybrid-2", "test": "FRET melting", "setting": "1 µM, DNA 0.2 µM", "quantity": "ΔTm", "value": "23.2 ± 0.5 °C"}
{"SMILES": "COC1CN([C@H]2CC[C@H]([C@@]3(C)Oc4c(Cl)cc(C(=O)NCc5c(SC)cc(C)[nH]c5=O)c(C)c4O3)CC2)C1", "test": "RNA-seq, item: SORBS1", "system": "human, whole blood", "setting": "dose not given, 24 h", "how to read": "reference: pretreatment baseline", "quantity": "log2 fold change", "value": 1.59}
{"SMILES": "C=CC(=O)Nc1cccc(Cn2ncc3cnc(Nc4cnn(CCOC)c4)nc32)c1", "target or system": "CLK1 human", "test": "binding, KINOMEscan", "setting": "100 nM", "how to read": "lower = stronger binding", "quantity": "percent of control", "value": "91%"}
{"SMILES": "CC(C)(C)c1cc(-c2ccc3cccnc3n2)nc(-c2ccc3cccnc3n2)c1.[Cl-].[Cl-].[Ru+2].c1ccc2cc3nc4c5cccnc5c5ncccc5c4nc3cc2c1", "target or system": "B16-F10", "test": "resazurin", "setting": "with: light 523 nm, 100 J/cm2", "how to read": "reference: dark EC50 over light EC50", "quantity": "phototoxicity index", "value": 10}
{"SMILES": "C[n+]1cc(/C=N/NC(=O)c2cncc(C(=O)N/N=C/c3cc4ccccc4[n+](C)c3)n2)cc2ccccc21", "target or system": "telomeric G4 DNA hybrid-2", "test": "FRET melting", "setting": "1 µM, DNA 0.2 µM", "quantity": "ΔTm", "value": "15.3 ± 0.7 °C"}
{"SMILES": "CN1CCCNC(=O)c2cccc(c2)C(=O)NCCCN(C)CCCNc2cccc3c2C(=O)c2cccc(c2C3=O)NCCC1", "target or system": "SAS", "test": "RNA-seq, item: THAP7-AS1 mRNA", "setting": "1 µM, 6 h", "how to read": "reference: untreated cells", "quantity": "log2 fold change", "value": 1.7}
{"SMILES": "Cn1ncc2cc(-c3cncc(Cl)c3N3CCC4(CCNC4=O)CC3)ccc21", "target or system": "LS174T", "test": "gene expression, microarray, item: VLDLR mRNA", "setting": "concentration not given, 24 h", "how to read": "reference: untreated cells", "quantity": "log2 fold change", "value": 3.96}
{"SMILES": "[Cl-].[Cl-].[Ru+2].c1cc(-c2ccc3cccnc3n2)nc(-c2ccc3cccnc3n2)c1.c1ccc2cc3nc4c5cccnc5c5ncccc5c4nc3cc2c1", "target or system": "B16-F10", "test": "resazurin", "setting": "with: light 633 nm, 20 mW, 100 J/cm2", "quantity": "EC50", "value": "50.3 µM"}
{"SMILES": "O=C(N/N=C/c1cc[n+](CC2CC2)c2ccccc12)c1cc(C(=O)N/N=C/c2cc[n+](CC3CC3)c3ccccc23)ncn1", "target or system": "telomeric G4 DNA hybrid-2", "test": "FRET melting", "setting": "1 µM, DNA 0.2 µM", "quantity": "ΔTm", "value": "8.9 ± 1 °C"}
{"SMILES": "c1ccc(-c2n[nH]cc2-c2ccnc3ccccc23)nc1", "target or system": "SAK1 (Candida albicans)", "test": "kinase binding, MIB/MS competition", "system": "Candida albicans lysate", "setting": "10 µM", "how to read": "reference: DMSO", "quantity": "log2 fold change", "value": 0.04}
{"SMILES": "O=C(N/N=C/c1ccc(C[n+]2ccccc2)cc1)N/N=C/c1ccc(C[n+]2ccccc2)cc1", "target or system": "telomeric G4 DNA hybrid-2", "test": "FRET melting", "setting": "1 µM, DNA 0.2 µM, with: duplex DNA competitor 10 µM", "quantity": "ΔTm", "value": "5.4 ± 2.2 °C"}
{"SMILES": "Nc1ncc(-c2cc(-c3cnn(CC(F)(F)F)c3)ncc2F)nc1C(=O)NC1CNCC(F)C1 (stereo not shown)", "target or system": "PFTAIRE2", "test": "KINOMEscan competition binding", "setting": "1 µM", "how to read": "reference: DMSO control", "quantity": "remaining binding", "value": "54%"}
{"SMILES": "C=C(NC(=O)c1csc(-c2nc3c(cc2O)-c2nc(cs2)C(=O)NC(C(C)O)C(=O)NC(=C(C)OC)c2nc(cs2)C(=O)NC2c4nc(cs4)C(=O)NC(COC(=O)c4c5c6c(cccc6n4O)COC(=O)C(OC4CC(C)(O)C(N(C)C)C(C)O4)C2OC5)c2nc-3cs2)n1)C(N)=O (stereo not shown)", "target or system": "Enterococcus faecalis", "test": "microbial growth, broth dilution", "setting": "clinical isolate", "quantity": "MIC90", "value": "0.0625 µg/mL"}
{"SMILES": "CC(=O)[O-].O.O.O.O.[Mn+2].[O-]c1ccc(Br)cc1C=NCCN1CCOCC1", "test": "FRAP", "setting": "40 µM", "quantity": "ferric reducing power", "value": "9.74%"}
{"SMILES": "COc1cc(O)ccc1CCC(c1ccc(O)cc1)c1cc2c(c(C)c1O)OC(c1ccc(O)cc1)CC2 (mixture of isomers)", "system": "human blood", "setting": "1 µM, with: A23187", "quantity": "LTB4 level", "value": "2060 ± 1030 pg/mL"}
{"SMILES": "CC(C)c1ccc(N(C)c2ccc3c(c2)OCC[C@H]3CNc2cnccc2C(=O)O)cc1", "target or system": "KATO III", "test": "cell viability, CellTiter-Glo", "setting": "7 days", "quantity": "IC50", "value": "0.0438 µM"}
{"SMILES": "O=C(N/N=C/c1cc[n+](Cc2ccccc2)c2ccccc12)C(=O)N/N=C/c1cc[n+](Cc2ccccc2)c2ccccc12", "target or system": "telomeric G4 DNA hybrid-2", "test": "FRET melting", "setting": "1 µM, DNA 0.2 µM, with: duplex DNA competitor 10 µM", "quantity": "ΔTm", "value": "7.9 ± 0.6 °C"}
{"SMILES": "COCCOCCOCCNC(=O)Cc1cc(CC(=O)N[C@H]2C[C@H]3C(=O)Nc4cc(OCCOCCOCCOC)cc(n4)C(=O)N4CCC[C@H]4C(=O)Nc4cc(OCCOCCOCCOC)cc(n4)C(=O)N4CCC[C@H]4C(=O)Nc4cc(OCCOCCOCCOC)cc(n4)C(=O)N3C2)cc(CC(=O)N[C@H]2C[C@H]3C(=O)Nc4cc(OCCOCCOCCOC)cc(n4)C(=O)N4CCC[C@H]4C(=O)Nc4cc(OCCOCCOCCOC)cc(n4)C(=O)N4CCC[C@H]4C(=O)Nc4cc(OCCOCCOCCOC)cc(n4)C(=O)N3C2)c1", "test": "anion binding, ITC", "system": "water", "setting": "298 K, with: sodium sulfate", "quantity": "ΔH", "value": "1.41 ± 0.0717 kcal/mol"}
{"SMILES": "CNS(=O)(=O)Nc1nccc(Cc2c(C)c3ccc(Oc4ncccc4F)cc3oc2=O)c1F", "target or system": "MDA-MB-157", "test": "cell viability", "setting": "7 days", "quantity": "IC50", "value": "> 1 µM"}
{"SMILES": "C[n+]1cccc2cc(/C=N/NC(=O)c3cc(C(=O)N/N=C/c4ccc5c(ccc[n+]5C)c4)ncn3)ccc21", "target or system": "telomeric G4 DNA hybrid-2", "test": "FRET melting", "setting": "1 µM, DNA 0.2 µM", "quantity": "ΔTm", "value": "4.2 ± 0.2 °C"}
{"SMILES": "N=C(N)NCCC[C@@H]1NC(=O)[C@H](CCCNC(=N)N)NC(=O)[C@@H](C(c2ccccc2)c2ccccc2)NC(=O)[C@H](Cc2c[nH]c3ccccc23)NC(=O)[C@@H](C(c2ccccc2)c2ccccc2)NC(=O)[C@@H](CCCNC(=N)N)NC(=O)[C@@H](CCCNC(=N)N)NC1=O", "target or system": "Blastomyces dermatitidis", "system": "BD-1", "quantity": "MIC", "value": "2 µg/mL"}
{"SMILES": "O=C(N/N=C/c1ccc2c(ccc[n+]2Cc2ccccc2)c1)N/N=C/c1ccc2c(ccc[n+]2Cc2ccccc2)c1", "target or system": "telomeric G4 DNA hybrid-2", "test": "FRET melting", "setting": "1 µM, DNA 0.2 µM, with: duplex DNA competitor 10 µM", "quantity": "ΔTm", "value": "12 ± 1.3 °C"}
{"SMILES": "Cc1ncsc1-c1ccc(C(C)NC(=O)C2CC(O)CN2C(=O)C(NC(=O)CCCCCCCCCCN2CCCC(Nc3ncc(Cl)c(Nc4ccccc4S(=O)(=O)C(C)C)n3)C2)C(C)(C)C)cc1 (stereo not shown)", "target or system": "22Rv1", "test": "RNA-seq, item: RRP7BP mRNA", "setting": "concentration not given", "how to read": "reference: DMSO", "quantity": "log2 fold change", "value": -1.2}
{"SMILES": "CC[n+]1cccc2cc(/C=N/NC(=O)c3cncc(C(=O)N/N=C/c4ccc5c(ccc[n+]5CC)c4)n3)ccc21", "target or system": "telomeric G4 DNA hybrid-2", "test": "FRET melting", "setting": "1 µM, DNA 0.2 µM, with: duplex DNA competitor 10 µM", "quantity": "ΔTm", "value": "20.3 ± 0.8 °C"}
{"SMILES": "C=CC(=O)N1[C@H](c2ccc3c(c2)OCO3)c2[nH]c3ccccc3c2C[C@@H]1C(=O)N1CCN(C)CC1", "target or system": "human cyclin E1 N112C-3xFLAG:CDK2", "test": "co-IP with TMT proteomics, item: RPS5", "setting": "concentration not given, P46782", "how to read": "reference: wild type DMSO", "quantity": "relative co-enrichment", "value": "104%"}
{"note": "A few entries again:"}
{"SMILES": "Nc1ncc(-c2cc(-c3cnn(CC(F)(F)F)c3)ncc2F)nc1C(=O)NC1CNCC(F)C1 (stereo not shown)", "target or system": "PFTAIRE2", "test": "KINOMEscan competition binding", "setting": "1 µM", "how to read": "reference: DMSO control", "quantity": "remaining binding", "value": "54%"}
{"SMILES": "N=C(N)NCCC[C@@H]1NC(=O)[C@H](CCCNC(=N)N)NC(=O)[C@@H](C(c2ccccc2)c2ccccc2)NC(=O)[C@H](Cc2c[nH]c3ccccc23)NC(=O)[C@@H](C(c2ccccc2)c2ccccc2)NC(=O)[C@@H](CCCNC(=N)N)NC(=O)[C@@H](CCCNC(=N)N)NC1=O", "target or system": "Blastomyces dermatitidis", "system": "BD-1", "quantity": "MIC", "value": "2 µg/mL"}
{"SMILES": "C[n+]1cccc2cc(/C=N/NC(=O)c3cc(C(=O)N/N=C/c4ccc5c(ccc[n+]5C)c4)ncn3)ccc21", "target or system": "telomeric G4 DNA hybrid-2", "test": "FRET melting", "setting": "1 µM, DNA 0.2 µM", "quantity": "ΔTm", "value": "4.2 ± 0.2 °C"}
